Assay results of several laboratories.
± marks the error that the study gave.

Cc1cnc(-c2ncn3c(=O)n(C)nnc23)o1 — remaining compound (mouse CD-1 male, liver microsomes; 50 µM, 2 h, pH 7.4; baseline: time zero): 71 ± 1%
COC(=O)C[C@](O)(CCCC(C)(C)OC(C)=O)C(=O)O[C@@H]1C(OC)=C[C@]23CCCN2CCc2cc4c(cc2[C@H]13)OCO4 — tissue concentration (CD1 mouse, spleen; subcutaneous, 1 mg/kg, 0.5 h): 984 ng/mL
CC[C@H](C)[C@H](NC(=O)[C@H](CC(=O)O)NC(=O)[C@H](CO)NC(=O)[C@H](CCC(N)=O)NC(=O)[C@H](C)NC(=O)[C@H](CC(=O)O)NC(=O)[C@H](CCC(=O)O)NC(=O)[C@H](Cc1c[nH]cn1)NC(=O)[C@H](Cc1ccc(O)cc1)NC(=O)[C@H](C)NC(=O)[C@H](CC(=O)O)NC(=O)[C@H](CCC(=O)O)NC(=O)[C@H](Cc1c[nH]cn1)NC(=O)[C@H](Cc1ccc(O)cc1)NC(=O)[C@H](C)NC(=O)[C@H](CC(=O)O)NC(=O)[C@H](CCC(=O)O)NC(=O)[C@H](Cc1c[nH]cn1)NC(=O)[C@H](Cc1ccc(O)cc1)NC(=O)[C@H](C)NC(=O)[C@H](CC(=O)O)NC(=O)[C@H](CCC(=O)O)NC(=O)[C@H](Cc1c[nH]cn1)NC(=O)[C@H](Cc1ccc(O)cc1)NC(=O)[C@H](C)NC(=O)[C@H](CC(=O)O)NC(=O)[C@H](CCC(=O)O)NC(=O)[C@H](Cc1c[nH]cn1)NC(=O)[C@@H](N)Cc1ccc(O)cc1)C(=O)N[C@H](C(=O)N[C@@H](C)C(=O)N[C@@H](Cc1c[nH]cn1)C(=O)N[C@@H](CC(C)C)C(=O)N[C@@H](CC(C)C)C(=O)O)C(C)C — MO share of white cells (mouse SN model, blood; dose not given): 7.8 ± 0.5%
CC[C@H](C)[C@@H]1NC(=O)[C@H](CCCCN)NC(=O)[C@H](CCCCN)NC(=O)[C@H](Cc2ccc(O)cc2)NC(=O)[C@H](CC(C)C)NC(=O)[C@@H]2CCCN2C(=O)[C@H](C)NC(=O)CNC(=O)CNC(=O)[C@H](CO)NC(=O)CNC(=O)CNC(=O)[C@H](CCCNC(=N)N)NC(=O)[C@H](CCC(=O)O)NC(=O)[C@H](CC(C)C)NC(=O)[C@H](Cc2c[nH]cn2)NC(=O)[C@H](CCCCN)NC(=O)[C@H](CCCCN)NC(=O)[C@H]([C@@H](C)CC)NC(=O)[C@H]([C@@H](C)CC)NC(=O)[C@H](CCCCN)NC(=O)[C@H](CCCCN)NC(=O)[C@H](Cc2ccc(O)cc2)NC(=O)[C@H](CC(C)C)NC(=O)[C@@H]2CCCN2C(=O)CNC(=O)CNC(=O)[C@@H](NC(=O)CN)CSSC[C@@H](C(N)=O)NC(=O)[C@H](Cc2c[nH]cn2)NC(=O)[C@H](CCCCN)NC(=O)[C@H](CCCCN)NC(=O)[C@H]([C@@H](C)CC)NC1=O — HC10 (hemolysis; uninfected human erythrocytes; 1 h): > 128 µM
CC1(C)C(=CC=CC=CC2=[N+](CCCCN=[N+]=[N-])c3ccc(S(=O)(=O)[O-])cc3C2(C)C)N(CCCCCC(=O)O)c2ccccc21 — molar absorptivity reduction (water; concentration not given; baseline: DMSO): 40%
CN[C@](C)(C[18F])C(=O)O — tissue uptake (SCID mouse A549 xenograft, spleen; 30 min, post injection): 10 ± 3.1 %ID/g
CC[C@H](C)C(=O)N1CCC(NC(=O)Nc2ccc(OC(F)(F)F)c(F)c2)CC1 — subjects with insomnia TEAE (healthy volunteers; oral, 24 mg single dose): 0%
CN(C)C(CNC(=O)Nc1cc(C(F)(F)F)ccc1N1CCOCC1)c1ccncc1 (stereo not drawn) — serum sodium (mouse, serum; intraperitoneal, 240 mg/kg single dose): 144 mmol/L
CCCCCCCC[C@@H]1NC(=O)[C@@H](Cc2ccccc2)NC(=O)[C@H](CCN)NC(=O)[C@@H](NC(=O)[C@H](CCN)NC(=O)[C@@H](NC(=O)[C@H](CCN)NC(=O)c2ccc(-c3ccccc3)cc2)[C@@H](C)O)CCNC(=O)[C@H]([C@@H](C)O)NC(=O)[C@H](CCN)NC(=O)[C@H](CCN)NC1=O — Vd (rat, plasma; intravenous, single dose): 0.195 to 0.313 L/kg
CC(C)[C@H](NC(=O)CNC(=O)[C@H](CCC(N)=O)NC(=O)[C@H](C)N)C(=O)O — drug-related adverse events (human; intravenous infusion, 90 mg/kg/h, 2 h, relatedness Definitely; baseline: subjects): 0%
O=c1oc2cc(O)ccc2c2cc(O)c(O)cc12 — pKa1 (potentiometric titration; water, extrapolated from methanol/water; 25 °C): 6.58
[2H]C([2H])([2H])C([2H])([2H])C([2H])([2H])OC(C(=O)OC1CCNCC1)(c1ccccc1)c1ccccc1 — Tmax (male human, plasma; oral, 10 mg, multiple doses): 4 h
NC(=O)N[C@H]1CC[C@H](CCN2CCN(c3cccc(Cl)c3Cl)CC2)CC1 — plasma exposure (rat; oral, 3 mg/kg cariprazine; baseline: cariprazine): ~4%
CCCCCCCC(=O)OC[C@H](NC(=O)[C@H](CO)NC(=O)CN)C(=O)N[C@@H](Cc1ccccc1)C(=O)N[C@@H](CC(C)C)C(=O)N[C@@H](CO)C(=O)N1CCC[C@H]1C(=O)N[C@@H](CCC(=O)O)C(=O)N[C@@H](Cc1cnc[nH]1)C(=O)N[C@@H](CCC(N)=O)C(=O)N[C@@H](CCCNC(=N)N)C(=O)N[C@H](C(=O)N[C@@H](CCC(N)=O)C(=O)N[C@@H](CCC(N)=O)C(=O)N[C@@H](CCCNC(=N)N)C(=O)N[C@@H](CCCCN)C(=O)N[C@@H](CCC(=O)O)C(=O)N[C@@H](CO)C(=O)N[C@@H](CCCCN)C(=O)N[C@@H](CCCCN)C(=O)N1CCC[C@H]1C(=O)N1CCC[C@H]1C(=O)N[C@@H](C)C(=O)N[C@@H](CCCCN)C(=O)N[C@@H](CC(C)C)C(=O)N[C@@H](CCC(N)=O)C(=O)N1CCC[C@H]1C(=O)N[C@@H](CCCNC(=N)N)C(=O)O)C(C)C — MRT (ELISA; healthy humans, both sexes, plasma; continuous intravenous infusion, 1 µg/kg/h, 65 min): 0.75 ± 0.05 h
O=C[C@H](C[C@@H]1CCNC1=O)NC(=O)[C@H](Cc1cccc(F)c1)NC(=O)c1cc2ccccc2[nH]1 — clearance (mouse; intravenous, 5 mg/kg): 20.6 mL/min/kg
O=C(c1ccc(F)cc1)C1CCN(C2Cc3c(cccc3OCC[18F])CC2O)CC1 (single isomer, unassigned; (-)) — tissue uptake (Sprague-Dawley rat, male, muscle; intravenous, dose not given, 60 min): 0.253 ± 0.044 %ID/g
CCNc1cc2[o+]c3cc(NCC)c(C)cc3c(-c3ccccc3C(=O)OCCOCC[18F])c2cc1C — tissue uptake ratio (rat; 60 min; baseline: heart over lung): 2.3
N=C(N)NCc1ccc(C(=O)NCCCC[C@H](NC(=O)N[C@@H](CCC(=O)O)C(=O)O)C(=O)O)cc1[131I] — tissue uptake (SCID mouse, PC-3 xenografts, thyroid; 14 h): 0.2 ± 0.11 %ID/g
C/C=C/C=C/C/C=C/CCCCCCCc1cccc(O)c1O — tissue concentration (female Kunming mice tumour-bearing, kidneys; intravenous, 10 mg/kg, 4 h): 7230 ± 1620 ng/g
[CH3][Ti+2][O]C(=O)c1ccc([S][Au][PH](c2ccccc2)(c2ccccc2)[c-]2cccc2)cc1.[Fe+2].c1cc[cH-]c1.c1cc[cH-]c1.c1cc[cH-]c1 — pH (DMSO/water; 5 × 10 µM): 5.21
CSCC[C@@H]1NC(=O)[C@@H]2CSSC[C@H](NC(=O)[C@H](CO)NC(=O)[C@H](C)N)C(=O)N[C@@H](CCCNC(=N)N)C(=O)N[C@@H]([C@@H](C)O)C(=O)N3CCC[C@H]3C(=O)N[C@@H](CCCCN)C(=O)N[C@@H](CC(=O)O)C(=O)N[C@H]3CSSC[C@H](NC(=O)[C@H](CCCCN)NC(=O)[C@H](CCCNC(=N)N)NC(=O)[C@H](CC(N)=O)NC1=O)C(=O)N[C@@H](CCCCN)C(=O)N[C@H]1CSSC[C@H](NC(=O)[C@@H]4CCCN4C(=O)[C@H](CC(=O)O)NC(=O)[C@H](C)NC3=O)C(=O)N[C@@H](C)C(=O)N[C@@H](CCCCN)C(=O)N[C@@H](CCC(=O)O)C(=O)N[C@@H]([C@@H](C)O)C(=O)NCC(=O)N[C@@H](CSSC[C@@H](C(N)=O)NC(=O)[C@H](CCCNC(=N)N)NC(=O)[C@H](CC(N)=O)NC1=O)C(=O)N1CCC[C@H]1C(=O)N[C@@H](Cc1ccc(O)cc1)C(=O)NCC(=O)N[C@@H](CCCCN)C(=O)N2 — Magnesium (DA rat pristane-induced arthritis, serum; subcutaneous, 0.1 mg/kg single dose at onset, 21 days): 2.04 mg/dL
Cc1ccc(OCC(=O)N(Cc2cccs2)c2ccn[nH]2)cc1 — corpora lutea count (Crl:CD(SD) rat, bred female; oral, 125 mg/kg/day, mean per litter, developmental toxicity): 17.3
CCN(Cc1ccccc1)C(=O)CCc1nc(CN2CCN(C(=O)Cc3ccc(OC)c(OC)c3)CC2)no1 — LD50 (mouse; intravenous): 67.23 ± 0.5 mg/kg
Cc1ccc(/C=C/C(=O)O)cc1-c1cc2c(cc1C)C(C)(C)CCC2(C)C — LDL level (Sprague-Dawley rat, male, plasma; oral, 100 mg/kg, 2 h, sesame oil vehicle): 15 ± 8 mg/dL
NC(=O)c1c(F)ccc(OCc2nc3cc(Cl)cnc3s2)c1F — compound remaining (chemical stability; PBS; 10 µM, 24 h): 100%
O=c1c2cc(Cl)ccc2sc2c(NCc3ccccc3)nc3ccccc3c12 — body weight gain (BALB/c nude mice; i.p., 20 mg/kg): 3.68 ± 0.34%
[11CH3]Oc1ccc(C(=O)Nc2cc(-c3ccc(I)cc3)no2)cc1 — peak SUV (PET imaging; rhesus monkey, brain; intravenous, 2 min): ~2.3
C=C1C(=O)O[C@@H]2C[C@H](C)[C@@H]3C[C@H](OC(C)=O)[C@H](OC(C)=O)[C@@]3(C)C[C@H]12 — CC50 (propidium iodide flow cytometry; primary splenocytes, BALB/c mouse; 48 h, 10% fetal calf serum): 84.4 ± 3.8 µg/mL
O=P1(NCCCl)NCCCO1 (stereo not drawn) — MRT(0-inf) (rat, plasma; intravenous, 10 mg/kg CP, added: ketoconazole 0 mg/kg): 4.13 ± 0.253 h
CCN(CCCCOc1ccc(CCC(=O)N2CCC(Cc3ccccc3)CC2)cc1OC)Cc1ccccc1 — body weight, mental state, movement (Kunming mice; oral gavage, 1500 mg/kg daily, 14 days): no effect

A few entries again:
O=P1(NCCCl)NCCCO1 (stereo not drawn) — MRT(0-inf) (rat, plasma; intravenous, 10 mg/kg CP, added: ketoconazole 0 mg/kg): 4.13 ± 0.253 h
[11CH3]Oc1ccc(C(=O)Nc2cc(-c3ccc(I)cc3)no2)cc1 — peak SUV (PET imaging; rhesus monkey, brain; intravenous, 2 min): ~2.3
CCN(Cc1ccccc1)C(=O)CCc1nc(CN2CCN(C(=O)Cc3ccc(OC)c(OC)c3)CC2)no1 — LD50 (mouse; intravenous): 67.23 ± 0.5 mg/kg
